Published values from different studies.
“And” joins repeats or separate records; there may be more than shown. ± marks the error that the study gave. In brackets after ≈: the same amount, converted by molar mass.

CCCSC(SCCC)c1ccc(OCCNS(=O)(=O)c2cccc(Br)c2)c(OC)c1
EC50 (Tobacco mosaic virus; inactivation activity; plant in vivo): 1546.8 ± 0.8 µg/mL (≈ 2820 µM)

CCOC(=O)C1(Cc2ccc([N+](=O)[O-])cc2)Oc2cc(F)ccc2N(Cc2ccc([N+](=O)[O-])cc2)C1=O (stereo not shown)
inhibition (Echinochloa crus-galli; fresh weight, greenhouse postemergence; postemergence, 150 g ai/ha, 21 days): 37.3 ± 1.43%

C[N+]1=C2C(c3ccc(Cl)cc3)=[N+]([O-])c3ccccc3N2CCC1
MIC90 (Parabacteroides distasonis and Bacteroides spp.; bacterial growth): 8 µg/mL

CCSC(SCC)c1ccc(OCCNS(=O)(=O)c2ccc(C)cc2)cc1
EC50 (Tobacco mosaic virus; inactivation activity; plant in vivo): 515 ± 0.6 µg/mL (≈ 1210 µM)

CC[C@H](C)[C@H](NC(=O)[C@H](CCCNC(=N)N)NC(=O)[C@H](CO)NC(=O)[C@H](Cc1ccc(O)cc1)NC(=O)[C@@H](NC(=O)[C@@H](NC(=O)[C@H](C)NC(=O)CNC(=O)[C@H](CCCCN)NC(=O)[C@H](CCCCN)NC(=O)CCNC(=O)CCCCCNC(=O)[C@H](CCCNC(=N)N)NC(=O)CCCCCNC(=O)[C@H](CCCNC(=N)N)NC(=O)[C@H](CCCNC(=N)N)NC(=O)CCCCCNC(=O)[C@H](CCCNC(=N)N)NC(=O)[C@H](CCCNC(=N)N)NC(=O)CCCCCNC(=O)[C@H](CCCNC(=N)N)NC(=O)[C@H](CCCNC(=N)N)NC(=O)CCCCCNC(=O)[C@@H](N)CCCNC(=N)N)C(C)C)[C@@H](C)O)C(=O)N[C@@H](CO)C(=O)NCC(=O)N[C@@H](CCC(N)=O)C(=O)N[C@@H](Cc1ccc(O)cc1)C(=O)N[C@@H](CCCCN)C(=O)O
MIC (Escherichia coli; broth microdilution; ATCC 25922, Mueller-Hinton broth; together with: LPS O55:B5 1 mg/mL): > 96 µM

CN(C(=O)c1ccn2ncc(-c3ccc(C(N)=O)cc3)c2c1)c1ccc(C#N)cn1
faecal Nluc luminescence (Cryptosporidium parvum; UGA1 Nluc, IFN-gamma knockout C57BL/6 mice, faeces; oral, 10 mg/kg daily, 72 h post infection, treatment days 3-9; higher means more parasites): 1350 a.u. and 1250 a.u. and 599 a.u. and 433 a.u. and 609 a.u.

COc1ccccc1-c1n[nH]c2nc(N[C@H]3CC[C@H](NS(=O)(=O)CC(C)C)CC3)ncc12
EC50 fold change (Leishmania donovani; promastigotes, LdBOB CRK12 single knockout; baseline: wild type): 0.5

[O-][N+]1=C(c2ccc(Cl)cc2)C2=NCCCCN2c2ccccc21
MIC90 (Prevotella spp.; bacterial growth): 0.5 µg/mL (≈ 1.53 µM)

CCOC(=O)C1(Cc2cccc(C(C)C)c2)Oc2cc(F)ccc2N(Cc2cccc(C(C)C)c2)C1=O (stereo not shown)
inhibition (Eclipta prostrata; fresh weight, greenhouse postemergence; postemergence, 150 g ai/ha, 21 days): 61.2 ± 1.98%

C[N+]1=C2C(c3ccc([N+](=O)[O-])cc3)=[N+]([O-])c3ccccc3N2CCC1
MIC90 (Parabacteroides distasonis and Bacteroides spp.; bacterial growth): 1 µg/mL

CCCSC(SCCC)c1ccc(OCCNS(=O)(=O)c2ccc(C)cc2)c(OC)c1
EC50 (Tobacco mosaic virus; inactivation activity; plant in vivo): 156.5 ± 0.8 µg/mL (≈ 324 µM)

CC(C)CCCCCCCCC/C=C/C(=O)N[C@@H](CC(=O)O)C(=O)N[C@H]1CNC(=O)[C@@H]2CCCN2C(=O)[C@H](C(C)C)NC(=O)[C@@H](CN)NC(=O)CNC(=O)[C@H](CC(=O)O)NC(=O)CNC(=O)[C@H](CC(=O)O)NC(=O)[C@H](CC(=O)O)NC(=O)[C@H]2CCCCN2C1=O
MIC (Enterococcus faecium; broth microdilution; daptomycin-resistant isolate, Mueller-Hinton broth, Mg2+ 10 mg/L; 16 h, together with: Ca2+ 5 mM): 4 µg/mL

C[N+]1=C2C(c3ccccc3)=[N+]([O-])c3ccccc3N2CCC1
MIC50 (Prevotella spp.; bacterial growth): 4 µg/mL

CC(C)C[C@H](NC(=O)[C@H](CC(C)C)NC(=O)[C@H](CCCCN)NC(=O)[C@H](Cc1ccccc1)NC(=O)[C@@H](NC(=O)[C@H](CCCNC(=N)N)NC(=O)[C@@H](N)CCCCN)C(C)C)C(=O)N[C@@H](CCCCN)C(=O)N[C@@H](CCCNC(=N)N)C(=O)N[C@@H](Cc1ccc(O)cc1)C(=O)N[C@@H](Cc1c[nH]c2ccccc12)C(=O)N[C@@H](CCCNC(=N)N)C(=O)N[C@@H](CCC(N)=O)C(=O)N[C@@H](CC(C)C)C(=O)N[C@@H](CCCCN)C(=O)N[C@@H](CCCCN)C(=O)N1CCC[C@H]1C(=O)N[C@H](C(=O)N[C@@H](CCCNC(=N)N)C(=O)NCCOCCOCC(=O)O)C(C)C
TNF-α and IL-6 levels (Staphylococcus aureus and Pseudomonas aeruginosa; ELISA; BALB/c mice, polymicrobial wound infection, wound tissue; 60 µg; baseline: vehicle): decreased

CC[C@H](C)[C@H](NC(=O)[C@H](C)NC(=O)CNC(=O)[C@H](C)NC(=O)[C@H](CCCCN)NC(=O)[C@H](CO)NC(=O)[C@H](C)NC(=O)[C@H](CCSC)NC(=O)CN)C(=O)N[C@@H](C)C(=O)NCC(=O)N[C@@H](CCCCN)C(=O)N[C@H](C(=O)N[C@@H](C)C(=O)N[C@@H](CCCCN)C(=O)N[C@H](C(=O)N[C@@H](C)C(=O)N[C@@H](CC(C)C)C(=O)N[C@@H](CCCCN)C(=O)N[C@@H](C)C(=O)N[C@@H](CC(C)C)C(N)=O)C(C)C)[C@@H](C)CC
combination index (Escherichia coli; 3538 nalidixic acid resistant; Loewe additivity, together with: nalidixic acid): 1.01

CCOC(=O)C1(Cc2ccc(C(F)(F)F)cc2)Oc2cc(F)ccc2N(Cc2ccc(C(F)(F)F)cc2)C1=O (stereo not shown)
inhibition (Eclipta prostrata; fresh weight, greenhouse postemergence; postemergence, 150 g ai/ha, 21 days): 59.1 ± 3.76%

O=[N+]([O-])c1ccc(C2=[N+]([O-])c3ccccc3N3CCCN=C23)cc1
MIC90 (Prevotella spp.; bacterial growth): 0.125 µg/mL (≈ 0.388 µM)

CC[C@H](C)CCCCC(=O)N[C@@H](CCN)C(=O)N[C@H](C(=O)N[C@@H](CCN)C(=O)N[C@H]1CCNC(=O)[C@H]([C@@H](C)O)NC(=O)[C@H](CCN)NC(=O)[C@H](CCN)NC(=O)[C@H](CC(C)C)NC(=O)[C@@H](CC(C)C)NC(=O)[C@H](CCN)NC1=O)[C@@H](C)O
MIC fold change (Escherichia coli; daily serial passaging; ATCC 8739; highest sub-MIC, 48 days; baseline: initial MIC): 3.42

CCOC(=O)C1(Cc2ccc(F)cc2)Oc2cc(F)ccc2N(Cc2ccc(F)cc2)C1=O (stereo not shown)
inhibition (Eclipta prostrata; fresh weight, greenhouse postemergence; postemergence, 150 g ai/ha, 21 days): 59 ± 2.26%

CCSC(SCC)c1ccc(OCCNS(=O)(=O)c2ccc(C)cc2)c(Cl)c1
EC50 (Tobacco mosaic virus; inactivation activity; plant in vivo): 411.9 ± 0.7 µg/mL (≈ 895 µM)

CCOC(=O)C1(CC=C(C)C)Oc2cc(F)ccc2N(CC=C(C)C)C1=O (stereo not shown)
inhibition (Eclipta prostrata; fresh weight, greenhouse postemergence; postemergence, 150 g ai/ha, 21 days): 51.9 ± 2.93%

O=C1NC2(CC2)COc2ncc(F)cc2[C@H]2COCCN2c2ccn3ncc1c3n2
organ weight (Sprague-Dawley rat, female, spleen; oral, 20 mg/kg/day, 4 weeks): 1.12 ± 0.384 g

CC(C)(C)C(=O)OCOP(=O)(OCOC(=O)C(C)(C)C)C1CCCN(O)C1=O (stereo not shown)
CC50 (CAKI-1): > 100 µM

CCn1cnc2c(Oc3ccc(/C=C/C(=O)c4ccc(NS(=O)(=O)c5ccccc5C)cc4)cc3)ncnc21
EC50 (tobacco mosaic virus; inactivation activity; in vivo plant): 91.7 ± 1.8 µg/mL (≈ 170 µM)

COC(=O)C1=CO[C@@H](C)[C@@H]2Cn3ccc4c5ccccc5nc-4c3C[C@H]12
IC50 (Plasmodium falciparum; growth, [3H]-hypoxanthine uptake; FCR3; 96 h): 228 ± 71 nM

FC(F)(F)c1cccc(CNc2nc(NC3CCN(Cc4ccccc4)CC3)c3nc[nH]c3n2)c1
median survival (Cryptococcus neoformans; Galleria mellonella larvae; 2 mg/kg single dose): 3 days

CCCCCCCCCCCCCC(=O)N[C@H]1C(=O)N[C@@H](CN)C(=O)N[C@@H](CO)C(=O)N[C@@H](Cc2ccc(O)cc2)C(=O)O[C@H]1C
MIC (Staphylococcus aureus; SH1000; together with: cardiolipin, molar ratio 1): > 32 µg/mL

CC[C@H](C)[C@H](NC(=O)[C@H](CCCCN)NC(=O)[C@H](CCCCN)NC(=O)[C@H](Cc1ccccc1)NC(=O)[C@H](Cc1ccccc1)NC(=O)[C@H](CCCCN)NC(=O)[C@H](CCCCN)NC(=O)[C@H](Cc1ccccc1)NC(=O)[C@H](CCCNC(=N)N)NC(=O)[C@@H](N)CCCCN)C(=O)N[C@@H](CCCCN)C(=O)N[C@@H](CCCCN)C(=O)N[C@@H](CO)C(=O)N[C@H](C(=O)N[C@@H](CCCCN)C(=O)N[C@@H](CCCCN)C(=O)N[C@@H](CCCNC(=N)N)C(=O)N[C@H](C(=O)N[C@@H](CCCCN)C(=O)N[C@@H](CCCCN)C(=O)N[C@@H](CC(C)C)C(=O)N[C@@H](Cc1ccccc1)C(=O)N[C@@H](CCCCN)C(=O)N[C@@H](CCCCN)C(=O)N1CCC[C@H]1C(=O)N[C@@H](CCCNC(=N)N)C(=O)N[C@H](C(=O)N[C@H](C(=O)N1CCC[C@H]1C(=O)N[C@H](C(=O)N[C@@H](CO)C(=O)N[C@H](C(=O)N1CCC[C@H]1C(=O)N[C@@H](Cc1ccccc1)C(=O)O)[C@@H](C)CC)[C@@H](C)CC)[C@@H](C)CC)C(C)C)C(C)C)C(C)C
MBC (Pseudomonas aeruginosa; ATCC 27853; 20 h): 16 µg/mL (≈ 3.79 µM)

C[C@H](NC(=O)Cc1cc(F)cc(F)c1)C(=O)N[C@@H]1C(=O)N(C)c2ccccc2-c2ccccc21
lowest effective concentration (dengue virus type 2; viral protein expression, immunoblot, measured: NS4B and NS1; Huh-7.5.1; 48 h): 30 nM

CCOC(=O)C1(Cc2ccc(OC)cc2)Oc2cc(F)ccc2N(Cc2ccc(OC)cc2)C1=O (stereo not shown)
inhibition (Echinochloa crus-galli; fresh weight, greenhouse postemergence; postemergence, 150 g ai/ha, 21 days): 47.7 ± 1.66%

Cc1cc(C(=O)Nc2nc3cccc(C)c3n2[C@H]2CCCCN(C(=O)/C=C/CN(C)C)C2)ccn1
survival (Trypanosoma brucei brucei; 2T1 CLK1 overexpressing; 0.3125 µM, compound pretreated; baseline: maximum): 208% and 218% and 205% and 210%

Cc1ccc(S(=O)(=O)NCCOc2ccc(C(SC(C)C)SC(C)C)cc2)cc1
EC50 (Tobacco mosaic virus; protective activity; plant in vivo): 174 ± 2.1 µg/mL (≈ 384 µM)

COc1ccc(C2=[N+]([O-])c3ccccc3N3CC(C)(C)CN=C23)cc1
MIC90 (Parabacteroides distasonis and Bacteroides spp.; bacterial growth): 0.5 µg/mL (≈ 1.49 µM)

CCOC(=O)C1(Cc2ccc(C#N)cc2F)Oc2cc(F)ccc2N(Cc2ccc(C#N)cc2F)C1=O (stereo not shown)
inhibition (Echinochloa crus-galli; fresh weight, greenhouse postemergence; postemergence, 150 g ai/ha, 21 days): 39.8 ± 1.92%

CC(C)SC(SC(C)C)c1ccc(OCCNS(=O)(=O)c2ccc(Br)cc2)c(Cl)c1
EC50 (Tobacco mosaic virus; inactivation activity; plant in vivo): 134 ± 1.8 µg/mL (≈ 242 µM)

[O-][N+]1=C(c2ccccc2)C2=NCCCN2c2ncccc21
MIC50 (Parabacteroides distasonis and Bacteroides spp.; bacterial growth): ≤ 0.06 µg/mL

Cc1cc(N2CCC(C#N)(C3(C)CC3)C2=O)cc(C(=O)NCc2cc(F)cc(-c3cnn(C)c3)c2)n1 (racemic)
IC50 (Plasmodium falciparum; parasite growth, [3H]hypoxanthine incorporation; Dd2 DSM265-resistant, Pfdhodh mutant): 19 nM

Cc1cc(Cl)cc(S(C)=NC#N)c1NC(=O)c1cc(Br)nn1-c1ncccc1Cl (stereo not shown)
mortality (Spodoptera litura; leaf-dip; third instar larvae; 12.5 ppm, 72 h): 100%

CN(CCO)CCO.O=C(O)C(Cl)Cl
herbicidal inhibition (Eleusine indica; 15 mg/mL, 21 days, post-emergence, greenhouse): -44%

CCCSC(SCCC)c1ccc(OCCNS(=O)(=O)c2ccc(F)c(Cl)c2)c(OC)c1
EC50 (Tobacco mosaic virus; curative activity; plant in vivo): 572.1 ± 3.2 µg/mL (≈ 1100 µM)

For quick reference, copied from above:
CC[C@H](C)CCCCC(=O)N[C@@H](CCN)C(=O)N[C@H](C(=O)N[C@@H](CCN)C(=O)N[C@H]1CCNC(=O)[C@H]([C@@H](C)O)NC(=O)[C@H](CCN)NC(=O)[C@H](CCN)NC(=O)[C@H](CC(C)C)NC(=O)[C@@H](CC(C)C)NC(=O)[C@H](CCN)NC1=O)[C@@H](C)O
MIC fold change (Escherichia coli; daily serial passaging; ATCC 8739; highest sub-MIC, 48 days; baseline: initial MIC): 3.42

CCOC(=O)C1(Cc2ccc(C#N)cc2F)Oc2cc(F)ccc2N(Cc2ccc(C#N)cc2F)C1=O (stereo not shown)
inhibition (Echinochloa crus-galli; fresh weight, greenhouse postemergence; postemergence, 150 g ai/ha, 21 days): 39.8 ± 1.92%

CCOC(=O)C1(Cc2cccc(C(C)C)c2)Oc2cc(F)ccc2N(Cc2cccc(C(C)C)c2)C1=O (stereo not shown)
inhibition (Eclipta prostrata; fresh weight, greenhouse postemergence; postemergence, 150 g ai/ha, 21 days): 61.2 ± 1.98%

CCOC(=O)C1(Cc2ccc(C(F)(F)F)cc2)Oc2cc(F)ccc2N(Cc2ccc(C(F)(F)F)cc2)C1=O (stereo not shown)
inhibition (Eclipta prostrata; fresh weight, greenhouse postemergence; postemergence, 150 g ai/ha, 21 days): 59.1 ± 3.76%
